Measurements collected from several papers.
Numbered parts are unrelated; each lists some results of a single study. Positions count from the first letter of the parent shown.

Sample 1 — target: CCNE1, cyclin fold, Cln2 fusion (human); method: yeast growth competition, sequencing; sample: yeast; setting: weak parent motif; reference: not given; direction: higher = stronger binding
Parent: ORC1 docking peptide (human); PRARKRLELGNLG
| Variant | normalised enrichment score |
| --- | --- |
| R4V | 0.141 |
| R6S | -0.0779 |
| G13H | 0.885 |
| R6W | 0.172 |
| L7D | 0.588 |
| L9Y | 0.683 |

Sample 2 — method: protein-binding microarray; molecule type: double-stranded DNA, one strand shown; sample: in vitro; tested at: not given; direction: higher = stronger binding
Target: Hepatocyte nuclear factor 3-beta, forkhead domain (FOXA2, Homo sapiens, UniProt Q9Y261, residues 142-269)
Setting: k-mer, scored over probes, only values ≥0.25
Target sequence (chain): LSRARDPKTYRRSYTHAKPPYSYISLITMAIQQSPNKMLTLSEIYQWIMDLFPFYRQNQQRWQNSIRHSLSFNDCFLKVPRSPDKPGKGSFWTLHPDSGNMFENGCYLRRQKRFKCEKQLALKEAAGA
| Oligonucleotide | E-score |
| --- | --- |
| AGATATAG | 0.314 |
| ACCTTGTA | 0.291 |
| TATGCATA | 0.262 |
| GTATACAA | 0.35 |
| ATCAACAC | 0.297 |
| CAACAACA | 0.354 |
| TATTAATA | 0.256 |
| ACAATTTA | 0.296 |
| CGTGGTAA | 0.28 |

Sample 3 — method: protein binding microarray; molecule type: double-stranded DNA, one strand shown; sample: in vitro; tested at: not given; reference: not given; direction: higher = stronger binding
Target: Histone acetyltransferase KAT6A, winged helix 2, GST fusion (KAT6A, Homo sapiens, UniProt Q92794, residues 85-181)
Setting: 8-mer, flanks averaged, mean of 2 arrays, mostly near background
Target sequence (chain): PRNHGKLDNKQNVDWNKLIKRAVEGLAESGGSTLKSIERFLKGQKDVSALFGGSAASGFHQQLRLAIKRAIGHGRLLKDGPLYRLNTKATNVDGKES
| Oligonucleotide | E-score |
| --- | --- |
| ACTTGGCC | -0.0368 |
| ATCTTCGG | 0.121 |
| ATGGGCGC | 0.0166 |
| AGCTCAAG | -0.136 |
| GGGCGGGA | 0.163 |
| CCGACTTC | -0.0777 |
| AGGTTGCC | 0.0781 |
| ATAATATG | 0.061 |
| AAGGAACC | 0.168 |

Single results of other studies
| Substance | target | test | test system | setting | how to read | endpoint | result |
| --- | --- | --- | --- | --- | --- | --- | --- |
| PhoQ, residues 284 288 289 292 302 303 GNNTDL | PhoP, residues 12 14 15 18 19 GHCSL (Escherichia coli, UniProt P23836) | Sort-seq, refers to: YFP reporter | E. coli | PhoQ-PhoP variant library, together with: 10 µM Mg2+ | reference: high Mg2+ state, higher = stronger signaling | fold induction | 4.47 |

Repeated from above (sample 3):
| Oligonucleotide | E-score |
| --- | --- |
| ATGGGCGC | 0.0166 |
| ACTTGGCC | -0.0368 |
| ATCTTCGG | 0.121 |
